Measurements collected from several papers.
Every numbered part comes from another study and shows a few of its results, in no order. Positions count from the first letter of the parent shown.

Series 1 — technique: universal PBM; form: double-stranded DNA, one strand shown; sample: in vitro; concentration: 600 nM; reading: higher = stronger binding
Target: Sal-like protein 4, full length isoform A (SALL4, Homo sapiens, UniProt Q9UJQ4, residues 1-1053)
Sequence of UniProt Q9UJQ4 (whole entry, looked up): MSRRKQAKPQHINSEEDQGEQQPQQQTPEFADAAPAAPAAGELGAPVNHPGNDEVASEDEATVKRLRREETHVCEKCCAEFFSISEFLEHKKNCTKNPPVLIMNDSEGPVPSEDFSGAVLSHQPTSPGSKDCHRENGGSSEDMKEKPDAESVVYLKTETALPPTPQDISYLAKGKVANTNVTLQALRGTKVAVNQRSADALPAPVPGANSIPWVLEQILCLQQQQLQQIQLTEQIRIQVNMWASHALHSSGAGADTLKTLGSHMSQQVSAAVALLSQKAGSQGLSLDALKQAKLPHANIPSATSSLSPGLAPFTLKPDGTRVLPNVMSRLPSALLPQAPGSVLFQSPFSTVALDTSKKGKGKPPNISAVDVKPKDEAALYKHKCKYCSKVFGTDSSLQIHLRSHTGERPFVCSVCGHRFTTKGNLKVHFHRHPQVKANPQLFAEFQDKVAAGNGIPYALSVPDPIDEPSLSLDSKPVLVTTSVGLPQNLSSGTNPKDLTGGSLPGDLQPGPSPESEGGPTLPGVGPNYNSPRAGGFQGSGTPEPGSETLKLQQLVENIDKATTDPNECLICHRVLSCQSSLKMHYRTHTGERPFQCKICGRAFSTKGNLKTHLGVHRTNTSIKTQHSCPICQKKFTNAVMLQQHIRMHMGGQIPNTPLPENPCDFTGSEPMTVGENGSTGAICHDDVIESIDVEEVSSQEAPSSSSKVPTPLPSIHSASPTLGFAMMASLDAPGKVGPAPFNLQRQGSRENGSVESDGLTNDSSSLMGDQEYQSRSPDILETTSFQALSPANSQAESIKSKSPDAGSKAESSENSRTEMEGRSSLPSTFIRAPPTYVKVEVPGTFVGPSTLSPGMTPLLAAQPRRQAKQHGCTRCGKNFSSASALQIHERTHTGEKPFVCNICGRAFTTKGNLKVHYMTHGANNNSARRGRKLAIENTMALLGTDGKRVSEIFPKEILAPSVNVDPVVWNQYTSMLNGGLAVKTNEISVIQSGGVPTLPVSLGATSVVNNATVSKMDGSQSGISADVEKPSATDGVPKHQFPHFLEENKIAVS
Setting: 8-mer, flanks averaged, mean of replicates
Sequence | E-score
CGCTTTTA | 0.163
CGAGTGCC | -0.271
CGGATCCC | -0.362
AGGGCTAC | -0.199
TACGTTAA | 0.153
CCGCCCCC | -0.334
CCGAGACC | -0.282
AAGGCCGA | -0.178
AGATGCAT | -0.0124
AGCTTTGG | -0.0823

Series 2 — target: CCNA2, cyclin fold, Cln2 fusion (human); technique: yeast growth competition, sequencing; sample: yeast; setting: strong parent motif; baseline: not given; reading: higher = stronger binding
Parent: CDC6 docking peptide (human); TLKGRRLVFDNQL
Variant | normalised enrichment score
F9Q | 0.753
T1M | 3.82
L2F | 2.96
K3E | 0.556
Q12Y | 3.48
R6N | -0.0393
V8H | 1.81

Series 3 — target: CREB3L3, bZIP domain (human); technique: DHFR protein complementation; sample: yeast; baseline: wild-type JUN-FOS pair; reading: higher = stronger binding
Setting: single substitutions, most at no-binding floor
Parent: JUN, bZIP domain (human); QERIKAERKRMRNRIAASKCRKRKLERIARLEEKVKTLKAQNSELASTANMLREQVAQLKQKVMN; partner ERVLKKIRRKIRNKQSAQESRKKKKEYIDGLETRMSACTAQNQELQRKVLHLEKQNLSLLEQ
Variant | binding fitness
V35E | -1.52 natural log
R53D | -1.51 natural log
I28D | -1.19 natural log
A57M | -1.5 natural log
T37E | -1.47 natural log

Single results of other studies
Substance | target | assay | test system | setting | how to read | measurement | value
PhoQ, residues 284 288 289 292 302 303 ASTSDA | PhoP, residues 12 14 15 18 19 SMASL (Escherichia coli, UniProt P23836) | Sort-seq, measured: YFP reporter | E. coli | PhoQ-PhoP variant library, with: 10 µM Mg2+ | baseline: high Mg2+ state, higher = stronger signaling | fold induction | 2.32

Some of these lines once more (series 2):
Variant | normalised enrichment score
R6N | -0.0393
